Measured values collected from several papers.
Numbered parts are unrelated; each lists some results of a single study.
Sequence of UniProt Q9HBY8 (whole entry, looked up): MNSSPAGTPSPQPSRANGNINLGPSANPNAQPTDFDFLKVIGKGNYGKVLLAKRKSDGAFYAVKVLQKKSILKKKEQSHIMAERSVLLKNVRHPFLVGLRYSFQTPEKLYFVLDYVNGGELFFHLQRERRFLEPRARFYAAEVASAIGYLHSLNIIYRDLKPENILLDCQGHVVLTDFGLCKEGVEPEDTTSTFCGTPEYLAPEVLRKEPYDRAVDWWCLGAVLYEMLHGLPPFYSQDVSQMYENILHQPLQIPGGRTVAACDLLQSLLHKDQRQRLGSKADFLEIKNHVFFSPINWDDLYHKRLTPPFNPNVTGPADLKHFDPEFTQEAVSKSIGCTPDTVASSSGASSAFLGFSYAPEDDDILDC
Sequence of UniProt Q9NYL2 (whole entry, looked up): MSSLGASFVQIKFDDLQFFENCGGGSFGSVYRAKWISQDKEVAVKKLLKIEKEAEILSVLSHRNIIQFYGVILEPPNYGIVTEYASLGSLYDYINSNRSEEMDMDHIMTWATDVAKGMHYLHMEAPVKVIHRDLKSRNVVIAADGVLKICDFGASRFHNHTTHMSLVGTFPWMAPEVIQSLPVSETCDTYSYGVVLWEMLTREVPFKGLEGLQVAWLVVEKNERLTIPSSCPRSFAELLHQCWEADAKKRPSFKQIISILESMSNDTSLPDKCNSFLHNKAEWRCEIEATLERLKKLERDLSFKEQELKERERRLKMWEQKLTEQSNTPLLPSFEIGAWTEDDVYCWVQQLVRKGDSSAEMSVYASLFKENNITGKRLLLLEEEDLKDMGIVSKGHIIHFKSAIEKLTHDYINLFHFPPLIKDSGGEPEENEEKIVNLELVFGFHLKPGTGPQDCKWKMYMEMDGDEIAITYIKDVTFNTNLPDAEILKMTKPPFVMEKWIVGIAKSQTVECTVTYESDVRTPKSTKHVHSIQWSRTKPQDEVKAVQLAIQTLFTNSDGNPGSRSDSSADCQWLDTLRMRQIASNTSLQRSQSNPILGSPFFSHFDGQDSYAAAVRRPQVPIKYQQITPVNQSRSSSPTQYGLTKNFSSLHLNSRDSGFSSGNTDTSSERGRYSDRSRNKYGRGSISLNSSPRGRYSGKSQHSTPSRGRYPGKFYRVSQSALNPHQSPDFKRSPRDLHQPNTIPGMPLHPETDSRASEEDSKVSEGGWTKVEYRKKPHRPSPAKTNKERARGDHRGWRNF
Sequence of UniProt Q8TDR2 (whole entry, looked up): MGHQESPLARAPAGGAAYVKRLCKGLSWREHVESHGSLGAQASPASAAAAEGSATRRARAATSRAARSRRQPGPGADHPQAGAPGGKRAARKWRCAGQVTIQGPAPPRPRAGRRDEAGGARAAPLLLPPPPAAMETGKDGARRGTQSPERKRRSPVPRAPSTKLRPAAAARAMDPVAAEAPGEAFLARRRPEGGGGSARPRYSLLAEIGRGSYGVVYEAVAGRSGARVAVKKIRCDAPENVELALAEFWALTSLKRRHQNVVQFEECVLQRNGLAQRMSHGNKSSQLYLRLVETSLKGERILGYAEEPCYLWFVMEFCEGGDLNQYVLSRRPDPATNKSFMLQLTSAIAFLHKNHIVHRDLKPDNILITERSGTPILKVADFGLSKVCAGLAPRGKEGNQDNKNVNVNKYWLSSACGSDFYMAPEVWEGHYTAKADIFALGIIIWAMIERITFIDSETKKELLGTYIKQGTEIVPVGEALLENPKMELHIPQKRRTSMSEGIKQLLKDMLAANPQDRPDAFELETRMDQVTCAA
Sequence of UniProt Q04759 (whole entry, looked up): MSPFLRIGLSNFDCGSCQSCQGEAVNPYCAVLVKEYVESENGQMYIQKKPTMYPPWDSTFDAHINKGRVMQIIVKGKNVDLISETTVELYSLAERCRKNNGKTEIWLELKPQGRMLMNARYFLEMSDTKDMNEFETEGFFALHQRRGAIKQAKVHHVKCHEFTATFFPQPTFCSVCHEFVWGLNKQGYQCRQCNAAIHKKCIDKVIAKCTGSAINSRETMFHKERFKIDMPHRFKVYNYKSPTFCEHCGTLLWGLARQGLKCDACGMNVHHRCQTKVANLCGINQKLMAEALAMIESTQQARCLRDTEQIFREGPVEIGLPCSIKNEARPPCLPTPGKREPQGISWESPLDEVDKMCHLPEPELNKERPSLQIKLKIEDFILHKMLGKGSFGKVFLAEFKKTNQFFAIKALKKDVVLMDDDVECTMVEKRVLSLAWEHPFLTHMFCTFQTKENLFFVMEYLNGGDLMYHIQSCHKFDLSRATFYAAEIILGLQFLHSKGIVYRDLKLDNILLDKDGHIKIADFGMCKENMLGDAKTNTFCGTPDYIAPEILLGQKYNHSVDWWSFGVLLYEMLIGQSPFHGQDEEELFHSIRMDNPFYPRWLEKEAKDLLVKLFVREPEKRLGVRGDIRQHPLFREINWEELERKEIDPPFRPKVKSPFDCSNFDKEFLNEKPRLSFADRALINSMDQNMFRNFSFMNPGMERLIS
Sequence of UniProt P07332 (whole entry, looked up): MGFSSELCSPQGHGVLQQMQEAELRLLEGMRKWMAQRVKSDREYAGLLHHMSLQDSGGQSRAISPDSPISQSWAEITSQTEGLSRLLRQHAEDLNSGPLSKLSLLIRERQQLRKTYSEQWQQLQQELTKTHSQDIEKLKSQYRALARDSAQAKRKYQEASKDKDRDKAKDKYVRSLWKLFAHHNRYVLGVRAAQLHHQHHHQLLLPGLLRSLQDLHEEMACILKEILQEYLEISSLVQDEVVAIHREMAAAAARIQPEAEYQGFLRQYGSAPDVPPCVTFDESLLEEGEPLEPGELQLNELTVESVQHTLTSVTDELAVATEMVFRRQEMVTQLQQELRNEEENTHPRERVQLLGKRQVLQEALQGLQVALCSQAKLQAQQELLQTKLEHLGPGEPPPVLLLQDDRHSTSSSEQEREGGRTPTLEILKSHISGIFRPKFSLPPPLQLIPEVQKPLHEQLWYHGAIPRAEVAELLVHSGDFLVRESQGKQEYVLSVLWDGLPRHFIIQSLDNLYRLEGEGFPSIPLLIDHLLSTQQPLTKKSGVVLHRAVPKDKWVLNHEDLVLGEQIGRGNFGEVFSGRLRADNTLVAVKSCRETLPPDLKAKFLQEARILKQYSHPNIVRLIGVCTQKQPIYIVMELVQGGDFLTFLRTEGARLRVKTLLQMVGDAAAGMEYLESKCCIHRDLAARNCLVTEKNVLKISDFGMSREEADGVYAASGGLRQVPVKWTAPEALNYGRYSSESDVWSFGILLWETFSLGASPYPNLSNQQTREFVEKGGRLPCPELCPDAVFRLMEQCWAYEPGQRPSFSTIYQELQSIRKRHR
Sequence of UniProt P53667 (whole entry, looked up): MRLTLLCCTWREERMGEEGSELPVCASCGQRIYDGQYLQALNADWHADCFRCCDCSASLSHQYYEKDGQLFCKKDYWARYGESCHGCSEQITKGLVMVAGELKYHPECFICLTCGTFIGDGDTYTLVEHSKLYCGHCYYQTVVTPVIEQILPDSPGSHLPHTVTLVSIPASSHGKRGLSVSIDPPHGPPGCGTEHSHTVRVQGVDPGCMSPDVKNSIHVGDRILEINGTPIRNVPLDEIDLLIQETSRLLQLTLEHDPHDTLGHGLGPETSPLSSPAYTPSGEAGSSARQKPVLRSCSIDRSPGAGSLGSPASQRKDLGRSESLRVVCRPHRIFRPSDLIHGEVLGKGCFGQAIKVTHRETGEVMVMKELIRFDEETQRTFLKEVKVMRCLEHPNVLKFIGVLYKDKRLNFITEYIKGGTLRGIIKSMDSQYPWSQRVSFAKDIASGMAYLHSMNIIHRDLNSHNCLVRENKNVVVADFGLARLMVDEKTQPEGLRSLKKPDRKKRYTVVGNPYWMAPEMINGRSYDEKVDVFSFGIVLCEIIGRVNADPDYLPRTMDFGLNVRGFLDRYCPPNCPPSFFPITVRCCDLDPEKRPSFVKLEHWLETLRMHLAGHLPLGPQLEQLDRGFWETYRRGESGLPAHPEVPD
Sequence of UniProt P42680 (whole entry, looked up): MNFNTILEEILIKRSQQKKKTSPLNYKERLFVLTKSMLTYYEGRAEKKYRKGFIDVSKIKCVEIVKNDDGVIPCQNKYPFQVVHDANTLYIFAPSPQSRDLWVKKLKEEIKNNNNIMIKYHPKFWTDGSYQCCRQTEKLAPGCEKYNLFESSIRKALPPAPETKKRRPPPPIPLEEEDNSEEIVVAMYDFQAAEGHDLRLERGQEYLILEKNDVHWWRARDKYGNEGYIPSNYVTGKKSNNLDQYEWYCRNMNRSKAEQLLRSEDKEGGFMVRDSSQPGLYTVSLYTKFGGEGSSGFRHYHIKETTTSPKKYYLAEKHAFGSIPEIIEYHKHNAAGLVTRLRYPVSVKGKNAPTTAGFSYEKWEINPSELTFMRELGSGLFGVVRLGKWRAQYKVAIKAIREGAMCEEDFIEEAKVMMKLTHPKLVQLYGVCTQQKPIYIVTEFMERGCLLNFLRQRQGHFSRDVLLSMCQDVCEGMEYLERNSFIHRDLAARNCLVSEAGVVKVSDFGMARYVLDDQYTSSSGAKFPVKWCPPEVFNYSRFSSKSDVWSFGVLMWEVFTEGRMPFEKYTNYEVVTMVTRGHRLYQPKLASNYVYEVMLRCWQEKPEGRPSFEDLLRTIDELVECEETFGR
Sequence of UniProt P49674 (whole entry, looked up): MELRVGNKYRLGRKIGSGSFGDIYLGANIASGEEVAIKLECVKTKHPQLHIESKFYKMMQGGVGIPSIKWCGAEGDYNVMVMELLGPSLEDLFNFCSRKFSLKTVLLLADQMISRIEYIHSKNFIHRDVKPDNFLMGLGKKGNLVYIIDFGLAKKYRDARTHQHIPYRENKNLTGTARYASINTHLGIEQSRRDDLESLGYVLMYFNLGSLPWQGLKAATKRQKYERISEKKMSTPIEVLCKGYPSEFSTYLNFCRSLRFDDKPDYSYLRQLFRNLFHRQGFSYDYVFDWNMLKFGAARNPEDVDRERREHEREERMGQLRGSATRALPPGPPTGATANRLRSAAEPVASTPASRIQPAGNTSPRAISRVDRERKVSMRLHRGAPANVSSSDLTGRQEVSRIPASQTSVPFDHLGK

Sample 1 — organism: Sarcocystis neurona; effect on: parasite growth; tested at: 10 µM; time: 96 h; notes: second screen; reference: untreated; measurement: log2 fold change
O=C1NC(=O)C(c2ccccc2)(c2ccccc2)N1: 0.08
O=c1cnn([C@@H]2O[C@H](CO)[C@@H](O)[C@H]2O)c(=O)[nH]1: 0.22
COc1cc2nc(N(C)CCCNC(=O)C3CCCO3)nc(N)c2cc1OC (centres unmarked): 0.39
OC[C@H]1O[C@@H](Oc2cc(O)cc(/C=C/c3ccc(O)cc3)c2)[C@H](O)[C@@H](O)[C@@H]1O: 0.26
CNC(=C[N+](=O)[O-])NCCSCc1csc(CN(C)C)n1: 0.41
COc1ccc(CC2c3cc(OC)c(OC)cc3CC[N+]2(C)CCC(=O)OCCCCCOC(=O)CC[N+]2(C)CCc3cc(OC)c(OC)cc3C2Cc2ccc(OC)c(OC)c2)cc1OC (centres unmarked): 0.00192
CC1=C(CC(=O)O)c2cc(F)ccc2/C1=C\c1ccc([S+](C)[O-])cc1 (centres unmarked): 0.48
O=C1c2c(O)cc(O)cc2OC(c2ccc(O)c(O)c2)C1O (centres unmarked): 0.11
CCCCc1oc2ccccc2c1C(=O)c1cc(I)c(OCCN(CC)CC)c(I)c1: 0.12

Sample 2 — effect on: enzyme activity; mode: inhibitor; tested at: 0.5 µM; reference: control; measurement: remaining activity
SMILES: Nc1nc(Nc2ccc(S(N)(=O)=O)cc2)nn1C(=S)Nc1c(F)cccc1F
SRPK1 (Homo sapiens, UniProt Q96SB4): 25.9%
Cyclin-dependent kinase 2, with cyclin E (CDK2, Homo sapiens, UniProt P24941): 8.92%
FLT1 (Homo sapiens, UniProt P17948): 11.4%
TYRO3 (Homo sapiens, UniProt Q06418): 29.8%
JAK1 (Homo sapiens, UniProt P23458): 4.86%
PRKCQ (Homo sapiens, UniProt Q04759): 15.1%
CLK2 (Homo sapiens, UniProt P49760): 3.81%
CSNK1E (Homo sapiens, UniProt P49674): 91.8%
RPS6KA3 (Homo sapiens, UniProt P51812): -0.692%
MUSK (Homo sapiens, UniProt O15146): 8.02%
TEC (Homo sapiens, UniProt P42680): 106%
PAK1 (Homo sapiens, UniProt Q13153): 29%
EPHA2 (Homo sapiens, UniProt P29317): 29.9%
IGF1R (Homo sapiens, UniProt P08069): 0.625%
MAP3K20 (Homo sapiens, UniProt Q9NYL2): 49.1%
CLK1 (Homo sapiens, UniProt P49759): 2.26%
CSNK1D (Homo sapiens, UniProt P48730): 83.7%
SGK2 (Homo sapiens, UniProt Q9HBY8): 42%
SIK2 (Homo sapiens, UniProt Q9H0K1): 16.1%

Sample 3 — effect on: cell-free assay; method: competition with immobilised ligand; tested at: 1 µM; measurement: remaining binding
Structure (SMILES): CN(C)c1ncnc(-c2ccc3nc(Nc4cc(CN5CCN(C(=O)CC(F)(F)F)CC5)ccn4)[nH]c3c2)c1Cl
FES (Homo sapiens, UniProt P07332): 100%
PIP5K1A (Homo sapiens, UniProt Q99755): 96%
SGK1 (Homo sapiens, UniProt O00141): 37%
PRPF4B (Homo sapiens, UniProt Q13523): 100%
RET (Homo sapiens, UniProt P07949, V804M): 93%
PTK2 (Homo sapiens, UniProt Q05397): 100%
PIK3CA (Homo sapiens, UniProt P42336, H1047L): 61%
STK35 (Homo sapiens, UniProt Q8TDR2): 83%
LIM domain kinase 1 (LIMK1, Homo sapiens, UniProt P53667): 100%

Further values, each from its own experiment
C=CCc1ccc(O)c(-c2cc(CC=C)ccc2O)c1 — Hill slope (Anoctamin-1 (ANO1, Homo sapiens, UniProt Q5XXA6, del476-501); chloride current, inhibitor, whole-cell voltage clamp; wild type at 100 mV, with: 300 nM Ca2+): 0.79

Repeated from above (sample 3):
PRPF4B (Homo sapiens, UniProt Q13523): 100%
STK35 (Homo sapiens, UniProt Q8TDR2): 83%
FES (Homo sapiens, UniProt P07332): 100%
PIP5K1A (Homo sapiens, UniProt Q99755): 96%
